Experimental data collected from several papers.
Each numbered part is a random draw from the data of one study; scales do not carry over between parts. Substitutions count along the parent as printed.

Study 1 — target: CREB3L3, bZIP domain (human); technique: DHFR protein complementation; sample: yeast; relative to: wild-type JUN-FOS pair; direction: higher = stronger binding; measurement: binding fitness
Setting: single substitutions, most at no-binding floor
Starting sequence: JUN, bZIP domain (human); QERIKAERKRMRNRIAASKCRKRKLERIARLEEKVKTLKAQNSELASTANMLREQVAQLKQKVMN; partner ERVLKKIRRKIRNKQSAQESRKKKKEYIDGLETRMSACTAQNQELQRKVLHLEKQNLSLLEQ
V35Y: -1.34 natural log
V56N: -1.54 natural log
Q41L: -1.21 natural log
K36P: -1.5 natural log
M51C: -1.46 natural log
L52D: -1.56 natural log
E54W: -1.44 natural log
T48R: -1.51 natural log
N42Q: -1.46 natural log
L59S: -1.41 natural log
A49H: -1.56 natural log
E54T: -1.49 natural log
T48F: -1.37 natural log
V56F: -1.54 natural log
T37D: -1.41 natural log
L45D: -1.52 natural log
K34L: -1.25 natural log
E44T: -1.47 natural log
K39I: -1.22 natural log
N42F: -1.52 natural log
R53G: -1.52 natural log

Study 2 — technique: protein binding microarray; form: double-stranded DNA, one strand shown; sample: in vitro; concentration: not given; relative to: not given; direction: higher = stronger binding; measurement: E-score
Target: Histone acetyltransferase KAT6A, winged helix 2, GST fusion (KAT6A, Homo sapiens, UniProt Q92794, residues 85-181)
Setting: 8-mer, flanks averaged, mean of 2 arrays, mostly near background
Construct (chain): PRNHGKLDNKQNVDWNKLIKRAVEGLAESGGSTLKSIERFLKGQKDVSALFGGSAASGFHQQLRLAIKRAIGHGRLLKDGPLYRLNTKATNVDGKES
GCCCCGGC: 0.165
GCACCGTA: 0.11
GAAGCGAC: 0.054
CAGCACTG: -0.0888
AGTGCACA: -0.0347
GCCGGTCC: -0.0265
CCCCGAAC: 0.0767
ATGGTTAC: -0.0659
AGACATCT: -0.0632
CTTCAGGC: 0.0258
ATTTACAG: 0.087
ACGCGTGA: 0.0984
AGACCTGG: -0.124
AGACACCA: 0.152
CGTTTCGC: -0.0248
ACAATTGC: -0.248

Study 3 — technique: RNA Bind-n-Seq; form: RNA; sample: in vitro; concentration: 200 nM; setting: whole 134-nt RNA, ends assumed; together with: 150 mM LiCl; relative to: input library; direction: higher = stronger binding; measurement: log2 enrichment; library: 7-deaza-guanosine replaces G
Target: Ras GTPase-activating protein-binding protein 1, full length (G3BP1, Homo sapiens, UniProt Q13283)
Chain of UniProt Q13283 (whole entry, looked up): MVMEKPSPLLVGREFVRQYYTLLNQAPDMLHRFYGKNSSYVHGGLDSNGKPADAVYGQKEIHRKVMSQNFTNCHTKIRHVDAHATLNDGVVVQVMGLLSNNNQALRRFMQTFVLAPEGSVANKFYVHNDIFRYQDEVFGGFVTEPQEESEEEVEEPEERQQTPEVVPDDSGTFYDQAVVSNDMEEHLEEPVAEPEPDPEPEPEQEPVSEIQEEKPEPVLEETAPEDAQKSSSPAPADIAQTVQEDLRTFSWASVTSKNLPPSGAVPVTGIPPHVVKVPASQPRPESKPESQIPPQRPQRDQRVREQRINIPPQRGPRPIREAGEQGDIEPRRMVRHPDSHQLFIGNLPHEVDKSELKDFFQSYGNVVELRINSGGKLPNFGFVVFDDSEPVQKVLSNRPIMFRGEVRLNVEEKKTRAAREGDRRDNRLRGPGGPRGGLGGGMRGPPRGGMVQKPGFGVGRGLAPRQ
All sequences stand within: GGGAGUUCUACAGUCCGACGAUC … UGGAAUUCUCGGGUGUCAAGG
UAACUUUAGAGGAGGAUUUGAUGGAUAUGGCAGUGGACGUGGAUUUGGGGAUGGCUAUAAUGGGUAUGGAGGAGGACCUGGAGGUGGCAA: 0.0668
UCCUGUGCUACACAUCGUAUGUACCGAAUCGGGGAAAGGGGAAAAAGGGGAAAAAGGGGAAAGUAUUAUGUUACGCCGUUCGGAUCUGCA: 0.313
CCUGUGCUACACAUCGUAUGUACCGAAUCGGGGUUUUUGGGGUUUGGGGAAAAAAAGGGGAAAGUAUUAUGUUACGCCGUUCGGAUCUGC: -0.121
GCAGGAAGUAAAAACAAAUGGAAAUGCUUCGGAUAGUGGCAGGGGUGGGGGUUGCUAAGGAAUGGGUGGGAUGGGAGUGGGUAAAGAGUU: -0.176
UCGGAGGUGGAUUUUGUUUAUUUUUUUAGCUCAUUUCCAGGGGUGGGAAUUUUUUUUUAAUAUGUGUCAUGAAUAAAGUUGUUUUUGAAA: 0.428
AGUCCUGUGCUACACAUCGUAUGUACCGAAUCGGGGUUUUGGUUUUGGGGUUUUGGGAAAGUAUUAUGUUACGCCGUUCGGAUCUGCACU: -0.359
CUGUGCUACACAUCGUAUGUACCGAAUCGGGGAAAAAAAGGGAAAAAAAGGGAAAAAAAGGGAAAGUAUUAUGUUACGCCGUUCGGAUCU: 0.358
UAACUUUAGAGGAGGAUCUUAUGGAUAUGGCAGUGGACGUGGAUUUGGGGAUGGCUAUAAUGGGUAUGGAGGAGGACCUGGAGGUGGCAA: 0.0191
UGGGAGGUGGAUUUUGUUUAUUUUUUUAGCUCAUUUCCAGGGGUGGGAAUUUUUUUUUAAAAUGUGUCAUGAAUAAAGUUGUUUUUGAAA: -0.273
UGGGAGGUGGAUUUUGUUUAUUUUUUUAGCUCAUUUCCAGGGGUGGGAAUUUUUUUUUAAUAUGUGUCAUGAAUAAAGUUGUUUUUUAAA: 0.116
CUCAAGUCCUGUGCUACACAUCGUAUGUACCGAAUCGGAAAAAGGAAAGGAGGAAAGUAUUAUGUUACGCCGUUCGGAUCUGCACUUCCA: -0.987

Study 4 — technique: protein-binding microarray; form: double-stranded DNA, one strand shown; sample: in vitro; concentration: 250 nM; setting: 60-bp whole probe; together with: salmon DNA 0.4 mg/ml; relative to: random background probes; direction: higher = stronger binding; measurement: log fluorescence; all sequences stand within: GCCTAGCAC … GTCTTGATTCGCTTGACGCTGCTG
Target: Interferon regulatory factor 7, full length, phosphomimetic (IRF7, Homo sapiens, UniProt Q92985, residues 1-503, S101K/S471D/S472D/S475D/S476D/S477D/S483D/S484D/S487D)
Chain of UniProt Q92985 (whole entry, unmodified, looked up): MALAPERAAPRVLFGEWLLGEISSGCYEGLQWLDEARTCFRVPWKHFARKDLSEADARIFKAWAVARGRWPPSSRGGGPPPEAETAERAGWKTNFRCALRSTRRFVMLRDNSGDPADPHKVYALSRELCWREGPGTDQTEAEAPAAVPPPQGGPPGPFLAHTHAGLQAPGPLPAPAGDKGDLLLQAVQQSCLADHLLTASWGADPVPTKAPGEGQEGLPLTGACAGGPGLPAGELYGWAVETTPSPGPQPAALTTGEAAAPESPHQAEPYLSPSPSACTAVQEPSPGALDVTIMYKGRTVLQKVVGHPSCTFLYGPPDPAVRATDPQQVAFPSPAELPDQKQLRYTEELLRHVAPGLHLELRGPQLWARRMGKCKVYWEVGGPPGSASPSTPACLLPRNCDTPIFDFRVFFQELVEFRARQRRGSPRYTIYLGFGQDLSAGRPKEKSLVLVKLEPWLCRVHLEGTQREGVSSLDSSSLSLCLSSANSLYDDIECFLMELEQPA
GACGGATTCGACTATCGGGACGTGCTA: 0.554 z-score
CACGGTATCGGGTTTCGGGACGTGCTA: 3.46 z-score
GACGGTATCCTTTTCGTGACGTGCTAG: 0.887 z-score
TTAAGTATCGACTTTCGGTTAGTGCTA: 3.31 z-score
TTAGGTATCGACAATCGGTTAGTGCTA: 0.154 z-score
GACGTTTTCGGTCTCGGGACGTGCTAG: 2.49 z-score
TTAGGAATCCTTATCCTTTAGTGCTAG: 0.0966 z-score
TCACTCCTCCTTCTCTAACTGTGCTAG: 0.428 z-score
TTAGGACTGCGACTGGGTTAGTGCTAG: -0.529 z-score
GACGGTTGCGGGTTTCGGGACGTGCTA: 2.22 z-score
GAAGATCTCAGTTTCGAGACGTGCTAG: 4.23 z-score
GACGGACAGGGTATCGGGACGTGCTAG: -0.702 z-score
TCAAGTATGTTCACTATTACTGTGCTA: -0.111 z-score
TTAGATCTCAGTCTGGATTAGTGCTAG: -0.229 z-score
GACGGTCTCCTTTTTCTGACGTGCTAG: 0.688 z-score
TCATACATTTATATCTTACTGTGCTAG: 0.485 z-score
GACGATTTAAGTCTCGAGACGTGCTAG: 0.758 z-score
GCCGGACTGGGACTGGGGACGTGCTAG: -0.501 z-score
TTAGCTTTCGACACTGGGTTAGTGCTA: -0.0929 z-score
TTAGGTTTCGGTATCGGTTCGTGCTAG: 10.8 z-score
GACGGTATCGGTTCCGGGACGTGCTAG: 2.83 z-score
TTAGGTTCCCTTTTCCTTCAGTGCTAG: 4.29 z-score
GTCGGTATCGGACTGGGGACGTGCTAG: 0.15 z-score
TCACTCGTCTCTATCAAACTGTGCTAG: 0.161 z-score
TGCTTTCTTTAACTCATTTTGTGCTAG: 1.9 z-score

Study 5 — technique: RNA Bind-n-Seq; form: RNA; sample: in vitro; concentration: 365 nM; relative to: no-protein control; direction: higher = stronger binding; measurement: RBNS enrichment (R)
Target: RNA binding protein fox-1 homolog 2, RRM domain, GST-SBP tag (RBFOX2, Homo sapiens, UniProt O43251-10, residues 100-194)
Setting: natural RNA segment, single round, ends assumed
All sequences stand within: GGGAGUUCUACAGUCCGACGAUC … UGGAAUUCUCGGGUGCCAA
Residues (chain): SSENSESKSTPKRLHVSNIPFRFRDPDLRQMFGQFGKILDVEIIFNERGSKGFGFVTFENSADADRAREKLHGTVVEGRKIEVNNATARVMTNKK
AGAGUAGUCAUAGUGUUGAAAGAACUGUACUGUUAUCCCGAGUCCCUUCCAAACAAAAAAGGCAAAGUUGUCCUAAGGUGAUCUCACUGUUGUGAAUGCCCAGUUGUAUU: 0.416
UUAAUUGUUGAUACUUAAGUUGUCAGUAGACAUGCUUUAUUUAUGAUAUAUUUCAGCUUAAAGUUAUGUUAUUAUAUGUGGAUGUAAAUAUAGAUUUGGUGUUUUACAGU: 2.27
GAAGGAAGUGUUUGAAAGUCACUUUGAAAGUUAGUUUUGGGCCAGCACGGUAGCUCACCCUUGUAAUCCCAGCACUUUGGGAGGCUGAGGUGGGUAGAUUACUUGAGCCC: 2.92
UUUAGCACCUACCUCCUAGAGCUGUUUUGGGAGUCAAAUGCGCUGACGUAUAUAAAGUGCUUUGCAAGAUCCCUUUGUGUUUGCGGCUGUCAUUGUGGAAGAGUUGCAAC: 1.2
CUCCUCCCAGACCCAGCUGGUGGCUGUGAGGAGGUGGGGAAUGCUAAUGAGAAUGAAAAGCACAUGGGUUGAUGGGAAGGGACAAGAUUACCACGUUAGGAGGGUGAGCA: 29.5
GAAACAUGAAGAUAUUAAAAUGGCAGCUGGCUAACUGUCUCUUAAGCCACUAUGCAAUUUCUACCAAUGGAGAGAUUAGGGAAGCAAAUUAAGCCUCAUUCAGUAGGUCU: 0.409
GUGUCUGACGCGGCCACCUCUUUCUGGAGGGGCUGAGGACAGAUGUGCCUGCUUGUGGAGACCAGGCUGGGCCUAAGCGAAGGGUCAUCGCAGCCCCAGCCCGGAGCGUG: 0.86
GCCACAGAGUUAAGUGACCUCAGGUAACAUAAUGGUGAUGGUUGGCCAUUUGAGUCUUUGUAACCUAGGAAAGACAAAGGUCUGAUUCAGAUUGCAUGGGGGAUUUUUAA: 1.75
AUCUAUAGGGUCGAGCCUAGGGGAGCUUGAGGGAGGGCUGGGGCCUCCUUGUCCUGGAUUUCCAGCUCUCCCCAUGCCCCCUCCCUGAGCACCACCGGCACCGCCUCCCA: 0.365
UACAGGAUCAUGUUGGCAUUUACUAUCAUGUCUUUAUCAUAAACCAUGUUUGUUUGAGGUAGAAGAAUCACCAUAUAAUUCGUUGCCCAAAUUGGGACUAUUGAGAGAGA: 0.418
AUGGCUUGAGGUGCCUGGCCCAUGCUGCCGGCUAAAUGCCAUCCAGUGUGCCCAGCAGUUUCAGACCUGACUCUGGAGGGAAUUUGGAGACAGUGUAGACAGCAGCUCUG: 0.268
AGGCCCCCUGCAGGAGGUCCGCUGCAGAUGGCACUGCCCUUCCUUCAGGUCAGGUGGCCCACCACCCUCUGGAAGCCAGGUGCCCACCCCACCUCCAGCUCUGCUGGCAA: 0.241

Study 6 — technique: universal PBM; form: double-stranded DNA, one strand shown; sample: in vitro; concentration: not given; direction: higher = stronger binding; measurement: E-score
Target: Sal-like protein 4, full length isoform B (SALL4, Homo sapiens, UniProt Q9UJQ4-2, residues 1-616)
Setting: 8-mer, flanks averaged, mean of replicates
AGGCCCTG: -0.279
CCTATATC: 0.18
CGGGATTA: -0.0835
CACTCATA: 0.253
AACGTACC: -0.138
CTATAGAC: 0.0949
ATCTCGGA: -0.149
CCGTCGAA: -0.157
CCCTAAAG: -0.0499
AGGAACGC: -0.259
GTTATAGA: 0.339
AATTCAGC: -0.0626
ATCCGTAC: 0.177
CACGGCGC: -0.186
ACTTTCTC: 0.0423
CATTGACA: 0.0956
AGCTCATA: 0.218
CAGATACG: -0.108
AGGTAATA: 0.291
ACGGCTGG: -0.288
ATGGCAGG: -0.101
AATCAAGA: 0.194
CCCATCGG: -0.15
CGCCTTAG: -0.287
CGCGAGTA: -0.0195
